Published values gathered from unrelated publications.
Compare with care: the assays were run in different laboratories. ± marks the error that the study gave.
Cell line: HCT-116

SMILES	assay	test system	conditions	how to read	measurement	result
COc1nc(NCc2cn(-c3ccc(C(=O)Nc4ccc(C(F)(F)F)cc4)cc3)nn2)nc(OC)n1	flow cytometry	–	IC50, 24 h	baseline: untreated	G0/G1 phase cells	1.14 fold
CCOC(=O)CSc1nc(-c2ccc(Cl)cc2)c2c(NC(=O)c3ccccc3)nnc-2[nH]1	SRB	–	10 µM, NCI60 single-dose screen, colon cancer	baseline: untreated	cell growth	99.3%
CCCC(CCC)C(=O)OCc1cn(-c2c3ccccc3nc3ccccc23)nn1	NCI60 single-dose screen	–	10 µM	–	growth percentage	65.5%
O=[N+]([O-])c1cc(I)c(O)c(C=NNc2ccccc2)c1	annexin V	–	IC50	–	early apoptotic cells	19.9%
O=C(O)c1ccc(Nc2c(-c3ccccc3)nc3ccccn23)cc1	cell viability	–	72 h, added: camptothecin	direction not given	synergy score	-1.3
O=C(/C=C/C=C/C=C/C1CCCCC1)NC1=C[C@@](O)(/C=C/C=C/C=C/C(=O)NC2=C(O)CCC2=O)[C@@H]2O[C@@H]2C1=O	cell growth, CellTiter-Glo	–	78 h	–	GI50	19.6 µM
O=P1(C2CCCCC2)CCCCC1	annexin V/PI flow cytometry	–	IC50, 72 h	–	early apoptotic cells	2.2%
CCCCN1CCN(c2ccc3[nH]c(-c4ccc5[nH]c(-c6ccc(OCC)c(OCC)c6)nc5c4)nc3c2)CC1	SRB	–	10 µM, 48 h	–	growth percent	-79.7%
CC(=NN=c1[nH]c(C)c(N=Nc2ccccc2)s1)c1c(O)c2ccccc2oc1=O	cell growth, MTT	–	–	baseline: IC50 BJ-1 over HCT-116	selectivity index	> 2.95
NC(=O)NOCCCCCCCCCCCCCC[P+](c1ccccc1)(c1ccccc1)c1ccccc1.O=C([O-])C(F)(F)F	cell growth, live-cell imaging	–	1.5 µM, control at 90% confluence	–	cell confluence	9.07%
O=C1NC(=NCc2cccs2)S/C1=C\c1ccc2ncccc2c1	MTS	colon cancer	–	–	IC50	3.2 µM
NC(=O)NOCCCCCCCCCC[P+](c1ccccc1)(c1ccccc1)c1ccccc1.O=C([O-])C(F)(F)F	cell growth, live-cell imaging	–	100 µM, control at 90% confluence	–	cell confluence	1.53%
O=[N+]([O-])c1cc(Br)c(O)c(C=NNc2ccccc2)c1	Muse cell cycle	–	IC50, 24 h	–	cells in S phase	17.7%
NC(=O)NO	cell growth, live-cell imaging	–	200 µM, control at 90% confluence	–	cell confluence	31.9 ± 5.77%
Cn1cnc2c(F)c(Nc3ccc(Br)cc3F)c(C(=O)NOCCO)cc21	–	–	0.03906 µM, 72 h	–	viability	97.5%
COc1ccc(OC)c(-c2nc3ccc(-c4nc5ccc(N6CCN(C)CC6)cc5[nH]4)cc3[nH]2)c1	SRB	–	10 µM, 48 h	–	growth percent	82.1%
CCCCCCCCCCCCCC(=O)N[C@@H](CCSC)C(=O)N[C@@H](C)C(=O)N[C@@H](CO)C(=O)N[C@@H](CCCNC(=N)N)C(=O)NCC(=O)N[C@@H](C)C(=O)N[C@@H](CC(C)C)C(=O)N[C@@H](CCCNC(=N)N)C(=O)N[C@@H](CCCNC(=N)N)C(=O)N[C@@H](CS)C(=O)N[C@@H](CC(C)C)C(=O)N[C@@H](CO)C(=O)N1CCC[C@H]1C(=O)NCC(=O)N[C@@H](CC(C)C)C(=O)N1CCC[C@H]1C(=O)N[C@@H](CCCNC(=N)N)C(=O)N[C@@H](CC(C)C)C(=O)N[C@@H](CC(C)C)C(=O)N[C@@H](Cc1c[nH]cn1)C(=O)N[C@@H](CC(C)C)C(=O)N[C@@H](CO)C(=O)N[C@@H](CCCNC(=N)N)C(=O)NCC(=O)N[C@@H](CC(C)C)C(=O)N[C@@H](C)C(N)=O	cell viability, XTT	colon	concentration not given	–	viability	no effect
Cc1cc(C)n(C(=S)[S][Au][PH](CCCCCC[PH]([Au][S]C(=S)n2nc(C)cc2C)(c2ccccc2)c2ccccc2)(c2ccccc2)c2ccccc2)n1	cell growth, NCI-60 screen	–	colon cancer	–	log10 TGI	> -4
CC(=O)c1sc(=NN=C(C)c2c(O)c3ccccc3oc2=O)n(C)c1C	cell growth, MTT	–	–	baseline: IC50 BJ-1 over HCT-116	selectivity index	> 4.12
Cc1cc(=O)[nH]n1-c1nc(-c2ccc(Cl)cc2)c2c(NC(=O)c3ccccc3)nnc-2[nH]1	SRB	–	10 µM, NCI60 single-dose screen, colon cancer	baseline: untreated	cell growth	88.3%

SMILES	assay	test system	conditions	how to read	measurement	result
COc1nc(NCc2cn(-c3ccc(C(=O)Nc4ccccc4)cc3)nn2)nc(OC)n1	annexin V-FITC/PI	–	IC50, 24 h	–	necrotic cells	3.83%
CCOC(=O)c1sc(=NN=C(C)c2c(O)c3ccccc3oc2=O)[nH]c1C	cell growth, MTT	–	–	baseline: IC50 BJ-1 over HCT-116	selectivity index	> 4.9
O=[N+]([O-])c1ccc(O)c(C=NNc2ccc(Br)cc2)c1	ELISA	–	IC50, added: LPS	–	TNF-alpha reduction	50.6%
CCCCN1CCN(c2ccc3[nH]c(-c4ccc5[nH]c(-c6cc(OC)c(OC)c(OC)c6)nc5c4)nc3c2)CC1	SRB	–	10 µM, 48 h	–	growth percent	41.1%
O=[N+]([O-])c1cc(Br)c(O)c(C=NNc2ccc(C(F)(F)F)cc2)c1	annexin V	–	IC50	–	late apoptotic or dead cells	86%
NC(=O)NOCCCCCCCCCCCCCCCCCCCC[P+](c1ccccc1)(c1ccccc1)c1ccccc1.O=C([O-])C(F)(F)F	cell growth, live-cell imaging	–	0.1 µM, control at 90% confluence	–	cell confluence	88.8 ± 1.62%
COc1cc(NCC(=O)Nn2c(C)nc3ccc(Cl)cc3c2=O)cc(OC)c1OC	cytotoxicity, LDH release	–	24 h, 50% viability reduction	–	IC50	573 ± 8.17 µM
CSc1nc(-c2ccc(Cl)cc2)c2c(NC(=O)c3ccccc3)nnc-2[nH]1	SRB	–	10 µM, NCI60 single-dose screen, colon cancer	baseline: untreated	cell growth	97.3%
O=C(NOC[C@H](O)CO)c1ccc(F)c(F)c1Nc1ccc(I)cc1F	–	–	0.03906 µM, 72 h	–	viability	99.3%
CCn1cc(-c2cc(Cn3ccoc3=N)cc3c2CCN([C@@H](C)c2cc(OC)ccn2)C3=O)c(C(F)(F)F)n1	cell growth, inhibitor	–	120 h	–	EC50	22.3 µM
O=c1ccn(Cc2cn(-c3cc4ccccc4oc3=O)nn2)c(=O)[nH]1	NCI60 single-dose screen	–	10 µM	–	growth percentage	100%
COc1cccc2c1C(=O)c1c(O)c3c(c(O)c1C2=O)C[C@@](O)(C(=O)CO)C[C@@H]3O[C@H]1C[C@H](N)[C@H](O)[C@H](C)O1	flow cytometry	–	IC50, 24 h	–	cell cycle phase %G0-G1	44.1%
O=C(O)c1ccc(Nc2c(-c3ccccc3)nc3cc(-c4ccccc4)ccn23)cc1	cell viability	–	72 h, added: camptothecin	direction not given	synergy score	9.1
Cn1cncc1C1=CN(c2ncnc3[nH]cnc23)CCS1	–	–	colon cancer	–	TGI	91.2 µM
NC(=O)NOCCCCCCCCCCCCCCCC[P+](c1ccccc1)(c1ccccc1)c1ccccc1.O=C([O-])C(F)(F)F	cell growth, live-cell imaging	–	5 µM, control at 90% confluence	–	cell confluence	4%
COc1cccc2c1C(=O)c1c(O)c3c(c(O)c1C2=O)C[C@@](O)(C(=O)CO)C[C@@H]3O[C@H]1C[C@H](N)[C@H](O)[C@H](C)O1	flow cytometry	–	3.66 µM (IC50), 72 h	–	cells in pre-G1 phase	24.7%
NC(=O)NOCCCC[P+](c1ccccc1)(c1ccccc1)c1ccccc1.O=C([O-])C(F)(F)F	cell growth, live-cell imaging	–	400 µM, control at 90% confluence	–	cell confluence	80.8%
CN1CCN(c2ccc3[nH]c(-c4ccc5[nH]c(-c6ccc(C(F)(F)F)cc6)nc5c4)nc3c2)CC1	SRB	–	10 µM, 48 h	–	growth percent	21.1%
NC(=O)NOCCCCCCCCCCCC[P+](c1ccccc1)(c1ccccc1)c1ccccc1.O=C([O-])C(F)(F)F	cell growth, live-cell imaging	–	0.3 µM, control at 90% confluence	–	cell confluence	90.3 ± 2.97%
CC(=NN=c1sc(N=Nc2ccccc2)c(C)n1C)c1c(O)c2ccccc2oc1=O	cell growth, MTT	–	–	baseline: IC50 BJ-1 over HCT-116	selectivity index	> 2.64

A few entries again:
SMILES	assay	test system	conditions	how to read	measurement	result
O=[N+]([O-])c1cc(Br)c(O)c(C=NNc2ccc(C(F)(F)F)cc2)c1	annexin V	–	IC50	–	late apoptotic or dead cells	86%
CC(=NN=c1sc(N=Nc2ccccc2)c(C)n1C)c1c(O)c2ccccc2oc1=O	cell growth, MTT	–	–	baseline: IC50 BJ-1 over HCT-116	selectivity index	> 2.64
NC(=O)NOCCCC[P+](c1ccccc1)(c1ccccc1)c1ccccc1.O=C([O-])C(F)(F)F	cell growth, live-cell imaging	–	400 µM, control at 90% confluence	–	cell confluence	80.8%
